Published values of several laboratories.
Each numbered part is a random draw from the data of one study; scales do not carry over between parts.
Chain of UniProt Q96L34 (whole entry, looked up): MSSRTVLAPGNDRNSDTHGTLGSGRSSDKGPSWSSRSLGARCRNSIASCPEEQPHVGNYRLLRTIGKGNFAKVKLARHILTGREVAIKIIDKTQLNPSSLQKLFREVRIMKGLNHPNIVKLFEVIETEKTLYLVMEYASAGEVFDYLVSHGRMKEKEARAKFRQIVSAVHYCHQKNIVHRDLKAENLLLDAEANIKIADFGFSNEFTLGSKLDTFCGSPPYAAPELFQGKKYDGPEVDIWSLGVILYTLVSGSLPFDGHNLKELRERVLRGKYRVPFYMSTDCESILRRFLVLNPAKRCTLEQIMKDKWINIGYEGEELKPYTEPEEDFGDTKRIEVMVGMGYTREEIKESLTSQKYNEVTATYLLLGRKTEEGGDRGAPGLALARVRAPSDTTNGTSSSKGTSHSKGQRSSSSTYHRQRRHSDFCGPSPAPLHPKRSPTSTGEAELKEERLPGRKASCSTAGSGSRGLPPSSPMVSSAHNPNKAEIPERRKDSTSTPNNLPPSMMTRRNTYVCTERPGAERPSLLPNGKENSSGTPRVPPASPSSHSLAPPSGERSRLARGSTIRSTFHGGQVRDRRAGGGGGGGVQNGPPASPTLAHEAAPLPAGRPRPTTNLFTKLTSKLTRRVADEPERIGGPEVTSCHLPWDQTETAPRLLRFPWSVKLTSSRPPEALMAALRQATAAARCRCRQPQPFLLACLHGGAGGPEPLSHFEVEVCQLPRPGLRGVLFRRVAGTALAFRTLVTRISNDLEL
Chain of UniProt P08581 (whole entry, looked up): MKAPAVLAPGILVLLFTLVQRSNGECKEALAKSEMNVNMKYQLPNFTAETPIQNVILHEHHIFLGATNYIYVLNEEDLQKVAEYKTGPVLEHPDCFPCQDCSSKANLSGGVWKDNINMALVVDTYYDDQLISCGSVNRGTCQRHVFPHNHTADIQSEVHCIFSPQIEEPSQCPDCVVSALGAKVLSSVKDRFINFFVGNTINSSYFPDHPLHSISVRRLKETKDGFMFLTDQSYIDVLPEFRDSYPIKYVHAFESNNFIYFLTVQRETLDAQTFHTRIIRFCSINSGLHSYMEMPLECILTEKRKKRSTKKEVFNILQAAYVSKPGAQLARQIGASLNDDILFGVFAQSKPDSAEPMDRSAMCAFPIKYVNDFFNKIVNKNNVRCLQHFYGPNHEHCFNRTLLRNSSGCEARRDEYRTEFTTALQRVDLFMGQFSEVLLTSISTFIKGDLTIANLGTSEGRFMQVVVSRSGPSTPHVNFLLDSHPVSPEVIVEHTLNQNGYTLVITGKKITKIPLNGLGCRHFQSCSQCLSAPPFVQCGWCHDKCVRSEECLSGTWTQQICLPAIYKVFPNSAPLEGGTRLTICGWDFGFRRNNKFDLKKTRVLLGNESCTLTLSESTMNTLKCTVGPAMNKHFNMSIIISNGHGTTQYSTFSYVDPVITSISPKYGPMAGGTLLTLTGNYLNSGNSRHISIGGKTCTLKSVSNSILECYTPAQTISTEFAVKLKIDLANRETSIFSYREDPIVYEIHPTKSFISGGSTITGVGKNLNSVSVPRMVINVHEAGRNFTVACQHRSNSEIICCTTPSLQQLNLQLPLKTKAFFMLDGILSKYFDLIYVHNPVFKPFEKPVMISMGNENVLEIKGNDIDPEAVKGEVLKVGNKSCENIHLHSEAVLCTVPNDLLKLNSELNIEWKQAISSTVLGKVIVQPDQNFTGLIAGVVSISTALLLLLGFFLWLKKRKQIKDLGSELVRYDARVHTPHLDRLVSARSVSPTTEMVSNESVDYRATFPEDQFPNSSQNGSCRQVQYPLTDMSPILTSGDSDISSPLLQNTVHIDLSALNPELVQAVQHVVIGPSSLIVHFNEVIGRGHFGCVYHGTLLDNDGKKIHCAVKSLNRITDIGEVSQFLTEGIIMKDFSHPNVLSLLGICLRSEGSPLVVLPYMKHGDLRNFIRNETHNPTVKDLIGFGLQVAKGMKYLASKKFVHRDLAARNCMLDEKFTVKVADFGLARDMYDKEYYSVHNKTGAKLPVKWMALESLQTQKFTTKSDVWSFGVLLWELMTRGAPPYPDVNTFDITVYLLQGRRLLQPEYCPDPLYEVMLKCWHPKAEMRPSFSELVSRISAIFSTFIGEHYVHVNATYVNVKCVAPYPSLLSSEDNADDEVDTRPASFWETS
Chain of UniProt Q7KZI7 (whole entry, looked up): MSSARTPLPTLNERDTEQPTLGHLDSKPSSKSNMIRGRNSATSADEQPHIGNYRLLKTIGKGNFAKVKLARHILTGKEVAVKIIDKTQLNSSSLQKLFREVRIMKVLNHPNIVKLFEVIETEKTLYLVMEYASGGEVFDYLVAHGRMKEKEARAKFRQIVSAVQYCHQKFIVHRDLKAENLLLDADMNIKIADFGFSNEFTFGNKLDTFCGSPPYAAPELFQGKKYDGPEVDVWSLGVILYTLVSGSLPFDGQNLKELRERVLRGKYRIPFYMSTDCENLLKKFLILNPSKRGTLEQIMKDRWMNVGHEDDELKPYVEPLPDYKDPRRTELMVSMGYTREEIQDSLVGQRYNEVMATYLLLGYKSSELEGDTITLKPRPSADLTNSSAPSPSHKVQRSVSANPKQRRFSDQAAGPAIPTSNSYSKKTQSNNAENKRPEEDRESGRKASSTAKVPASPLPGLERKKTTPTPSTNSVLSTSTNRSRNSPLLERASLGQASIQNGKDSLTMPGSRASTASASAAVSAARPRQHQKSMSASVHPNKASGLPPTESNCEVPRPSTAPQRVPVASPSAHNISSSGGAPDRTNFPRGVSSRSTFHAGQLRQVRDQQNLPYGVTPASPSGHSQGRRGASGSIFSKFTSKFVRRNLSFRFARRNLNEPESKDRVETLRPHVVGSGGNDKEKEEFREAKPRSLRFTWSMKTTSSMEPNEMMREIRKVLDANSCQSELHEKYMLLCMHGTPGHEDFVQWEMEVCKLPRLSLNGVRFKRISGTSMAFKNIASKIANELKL
Chain of UniProt Q9H4B4 (whole entry, looked up): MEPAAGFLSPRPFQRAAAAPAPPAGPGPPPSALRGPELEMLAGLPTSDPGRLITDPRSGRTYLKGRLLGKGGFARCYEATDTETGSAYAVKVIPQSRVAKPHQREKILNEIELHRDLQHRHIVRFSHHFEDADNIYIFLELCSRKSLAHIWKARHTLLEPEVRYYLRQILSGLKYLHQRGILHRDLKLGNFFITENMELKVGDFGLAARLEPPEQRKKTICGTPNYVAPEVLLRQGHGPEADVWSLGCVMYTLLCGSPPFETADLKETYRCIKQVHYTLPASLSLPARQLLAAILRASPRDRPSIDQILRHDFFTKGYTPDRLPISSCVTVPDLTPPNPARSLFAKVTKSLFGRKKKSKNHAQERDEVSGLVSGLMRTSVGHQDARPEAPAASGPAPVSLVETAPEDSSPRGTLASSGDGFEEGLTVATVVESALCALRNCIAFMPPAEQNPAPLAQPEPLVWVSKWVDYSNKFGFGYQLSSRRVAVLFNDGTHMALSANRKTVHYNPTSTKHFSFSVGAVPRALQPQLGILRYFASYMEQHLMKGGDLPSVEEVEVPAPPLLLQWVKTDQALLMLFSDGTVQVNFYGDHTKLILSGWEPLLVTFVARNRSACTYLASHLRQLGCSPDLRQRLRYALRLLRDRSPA
Chain of UniProt Q99720 (whole entry, looked up): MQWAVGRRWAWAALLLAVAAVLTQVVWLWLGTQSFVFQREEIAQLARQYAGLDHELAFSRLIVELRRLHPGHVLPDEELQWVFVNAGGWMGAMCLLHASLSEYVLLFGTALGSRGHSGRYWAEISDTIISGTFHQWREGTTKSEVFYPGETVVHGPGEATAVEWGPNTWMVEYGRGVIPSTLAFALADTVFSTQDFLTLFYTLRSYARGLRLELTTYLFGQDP
Chain of UniProt Q5BJF2 (whole entry, looked up): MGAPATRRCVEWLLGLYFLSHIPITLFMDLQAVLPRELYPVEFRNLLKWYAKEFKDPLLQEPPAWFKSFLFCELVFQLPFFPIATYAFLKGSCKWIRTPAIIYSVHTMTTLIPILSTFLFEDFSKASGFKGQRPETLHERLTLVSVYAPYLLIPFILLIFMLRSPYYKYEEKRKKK
Chain of UniProt Q13237 (whole entry, looked up): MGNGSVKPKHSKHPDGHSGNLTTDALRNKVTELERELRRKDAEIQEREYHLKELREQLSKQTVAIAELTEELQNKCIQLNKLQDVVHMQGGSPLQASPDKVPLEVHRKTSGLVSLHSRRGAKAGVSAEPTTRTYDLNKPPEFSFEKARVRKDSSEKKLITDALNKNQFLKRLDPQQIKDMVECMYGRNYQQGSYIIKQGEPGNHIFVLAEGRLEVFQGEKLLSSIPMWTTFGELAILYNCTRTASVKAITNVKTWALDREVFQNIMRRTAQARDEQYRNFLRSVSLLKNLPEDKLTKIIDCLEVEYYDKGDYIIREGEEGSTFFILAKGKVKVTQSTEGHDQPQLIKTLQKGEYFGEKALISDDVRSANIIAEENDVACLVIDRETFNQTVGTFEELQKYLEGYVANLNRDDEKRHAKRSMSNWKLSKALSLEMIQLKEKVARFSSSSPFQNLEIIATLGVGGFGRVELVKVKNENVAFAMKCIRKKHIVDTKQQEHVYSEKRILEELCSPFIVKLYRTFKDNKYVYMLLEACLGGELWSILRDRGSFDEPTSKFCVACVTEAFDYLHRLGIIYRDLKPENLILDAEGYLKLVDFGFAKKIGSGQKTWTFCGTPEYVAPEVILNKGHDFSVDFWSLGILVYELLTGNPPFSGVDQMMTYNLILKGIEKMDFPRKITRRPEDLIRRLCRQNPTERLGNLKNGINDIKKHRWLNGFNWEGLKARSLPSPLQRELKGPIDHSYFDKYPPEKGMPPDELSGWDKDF

Sample 1 — read-out: acetyl-histone H4 peptide binding; method: AlphaScreen displacement; concentration: 50 µM
Target: Bromodomain-containing protein 4, BD1 (BRD4, Homo sapiens, UniProt O60885)
For `Cc1ccc([N+](=O)[O-])cc1S(=O)(=O)N(C)N=Cc1cnc2ccc(Br)cn12`, the inhibition was 55.7%.
The inhibition of `O=C1Nc2ccccc2C1=Cc1c(Cl)[nH]c2ccccc12` is reported as 62.9%.
`C=CCc1cccc(C=NCCS(=O)(=O)O)c1O` gave an inhibition of 15%.
`O=C(CSc1ccc2nnc(-c3cccc(F)c3)n2n1)Nc1ccc(F)cc1F` gave an inhibition of 4.95%.
The inhibition of `O=C1Nc2ccccc2C1=Nc1sc2c(c1C(=O)Nc1ccccc1)CCCC2` is reported as 25.8%.
`O=[N+]([O-])c1ccc(-c2nc(-c3ccc(F)cc3)c(-c3ccncc3)[nH]2)cc1` has an inhibition of 59.6%.
With `N#Cc1ccc(C(=O)Nc2cc(N3CCCCC3)ccc2N2CCCCC2)o1` the inhibition was 66%.

Sample 2 — read-out: enzyme activity; action: inhibitor; concentration: 0.5 µM; reference: control
SMILES: N#Cc1cnc2cnc(NCc3cccnc3)cc2c1Nc1ccc(F)c(Cl)c1
The remaining activity was 96.4% (MAP/microtubule affinity-regulating kinase 4 (MARK4, Homo sapiens, UniProt Q96L34)).
For Serine/threonine-protein kinase PLK3 (PLK3, Homo sapiens, UniProt Q9H4B4): remaining activity read 91.1%.
It gave 93.2% for remaining activity (Serine/threonine-protein kinase MARK2 (MARK2, Homo sapiens, UniProt Q7KZI7)).
It gave 92% for remaining activity (Ribosomal protein S6 kinase alpha-4 (RPS6KA4, Homo sapiens, UniProt O75676)).
For Serine/threonine-protein kinase DCLK2 (DCLK2, Homo sapiens, UniProt Q8N568): remaining activity read 97.2%.
For G protein-coupled receptor kinase 4 (GRK4, Homo sapiens, UniProt P32298): remaining activity read 98.8%.
The remaining activity was 94.9% (Hepatocyte growth factor receptor (MET, Homo sapiens, UniProt P08581)).
For Misshapen-like kinase 1 (MINK1, Homo sapiens, UniProt Q8N4C8): remaining activity read 77.5%.
Vascular endothelial growth factor receptor 2 (KDR, Homo sapiens, UniProt P35968) — remaining activity: 96.3%.
For Discoidin domain-containing receptor 2 (DDR2, Homo sapiens, UniProt Q16832): remaining activity read 91.9%.
For RAC-beta serine/threonine-protein kinase (AKT2, Homo sapiens, UniProt P31751): remaining activity read 101%.
It gave 115% for remaining activity (Mitogen-activated protein kinase 14 (MAPK14, Homo sapiens, UniProt Q16539)).
Mitogen-activated protein kinase 11 (MAPK11, Homo sapiens, UniProt Q15759) — remaining activity: 102%.
The remaining activity was 90.9% (cGMP-dependent protein kinase 2 (PRKG2, Homo sapiens, UniProt Q13237)).
Tyrosine-protein kinase TXK (TXK, Homo sapiens, UniProt P42681) — remaining activity: 88.1%.

Sample 3 — Compound: FC(F)(F)c1ccc2c(c1)nc(-c1cccnc1)n2C1CC1; read-out: cell-free assay; concentration: 10 µM
Alpha-1B adrenergic receptor (ADRA1B, Homo sapiens, UniProt P35368) — inhibition: 11.7%.
The inhibition was -1.88% (Beta-3 adrenergic receptor (ADRB3, Homo sapiens, UniProt P13945)).
It gave 9.49% for inhibition (Histamine H1 receptor (HRH1, Homo sapiens, UniProt P35367)).
For Sigma non-opioid intracellular receptor 1 (SIGMAR1, Homo sapiens, UniProt Q99720): inhibition read 16.9%.
Beta-2 adrenergic receptor (ADRB2, Homo sapiens, UniProt P07550) — inhibition: 1.56%.
The inhibition was 0.88% (5-hydroxytryptamine receptor 7 (HTR7, Homo sapiens, UniProt P34969)).
Sigma intracellular receptor 2 (TMEM97, Homo sapiens, UniProt Q5BJF2) — inhibition: 26.5%.
The inhibition was -1.96% (D(3) dopamine receptor (DRD3, Homo sapiens, UniProt P35462)).

Sample 4 — host: idiopathic pulmonary fibrosis patients; sample: plasma
SMILES: CC(C)n1cnc(-c2ccc(F)cc2)c1-c1ncc(C(=O)Nc2ccc(N3CCN(C)CC3)cc2)[nH]1
For 30 mg twice daily, week 0, median: AUC(0-t) read 274 ng·h/mL.
oral, 60 mg once daily, week 12, median — AUC(0-t): 3310 ng·h/mL.
The AUC(0-t) was 3450 ng·h/mL (oral, 60 mg once daily, week 12, arithmetic mean).
It gave 1630 ng·h/mL for AUC(0-t) (oral, 60 mg once daily, week 0, arithmetic mean).
For oral, 30 mg once daily, week 0, median: AUC(0-t) read 527 ng·h/mL.
30 mg twice daily, week 12, arithmetic mean — AUC(0-t): 1390 ng·h/mL.
For oral, 30 mg once daily, week 0, arithmetic mean: AUC(0-t) read 553 ng·h/mL.
oral, 30 mg once daily, week 12, median — AUC(0-t): 803 ng·h/mL.

Some of these lines once more (sample 1):
With `N#Cc1ccc(C(=O)Nc2cc(N3CCCCC3)ccc2N2CCCCC2)o1` the inhibition was 66%.
The inhibition of `O=C1Nc2ccccc2C1=Nc1sc2c(c1C(=O)Nc1ccccc1)CCCC2` is reported as 25.8%.
The inhibition of `O=C1Nc2ccccc2C1=Cc1c(Cl)[nH]c2ccccc12` is reported as 62.9%.
For `Cc1ccc([N+](=O)[O-])cc1S(=O)(=O)N(C)N=Cc1cnc2ccc(Br)cn12`, the inhibition was 55.7%.
`O=C(CSc1ccc2nnc(-c3cccc(F)c3)n2n1)Nc1ccc(F)cc1F` gave an inhibition of 4.95%.
`C=CCc1cccc(C=NCCS(=O)(=O)O)c1O` gave an inhibition of 15%.
